# Assay results from different studies.
# Protocols differ between the studies behind these lines. ± gives the spread as reported.
# UniProt Q01650, sequence (whole entry, looked up): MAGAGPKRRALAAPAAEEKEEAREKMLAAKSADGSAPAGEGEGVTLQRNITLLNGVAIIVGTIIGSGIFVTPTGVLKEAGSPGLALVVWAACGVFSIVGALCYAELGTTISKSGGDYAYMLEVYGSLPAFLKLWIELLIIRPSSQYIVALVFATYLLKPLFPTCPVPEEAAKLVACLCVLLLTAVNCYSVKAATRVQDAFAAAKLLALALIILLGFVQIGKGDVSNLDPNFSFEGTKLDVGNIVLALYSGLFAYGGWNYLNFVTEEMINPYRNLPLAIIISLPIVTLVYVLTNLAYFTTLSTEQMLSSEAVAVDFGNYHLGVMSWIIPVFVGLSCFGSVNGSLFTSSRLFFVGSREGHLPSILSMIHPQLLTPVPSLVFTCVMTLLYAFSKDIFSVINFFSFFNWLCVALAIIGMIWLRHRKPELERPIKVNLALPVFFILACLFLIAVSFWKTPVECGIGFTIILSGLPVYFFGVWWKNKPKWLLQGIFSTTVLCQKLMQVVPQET
# UniProt Q2M2I8, sequence (whole entry, looked up): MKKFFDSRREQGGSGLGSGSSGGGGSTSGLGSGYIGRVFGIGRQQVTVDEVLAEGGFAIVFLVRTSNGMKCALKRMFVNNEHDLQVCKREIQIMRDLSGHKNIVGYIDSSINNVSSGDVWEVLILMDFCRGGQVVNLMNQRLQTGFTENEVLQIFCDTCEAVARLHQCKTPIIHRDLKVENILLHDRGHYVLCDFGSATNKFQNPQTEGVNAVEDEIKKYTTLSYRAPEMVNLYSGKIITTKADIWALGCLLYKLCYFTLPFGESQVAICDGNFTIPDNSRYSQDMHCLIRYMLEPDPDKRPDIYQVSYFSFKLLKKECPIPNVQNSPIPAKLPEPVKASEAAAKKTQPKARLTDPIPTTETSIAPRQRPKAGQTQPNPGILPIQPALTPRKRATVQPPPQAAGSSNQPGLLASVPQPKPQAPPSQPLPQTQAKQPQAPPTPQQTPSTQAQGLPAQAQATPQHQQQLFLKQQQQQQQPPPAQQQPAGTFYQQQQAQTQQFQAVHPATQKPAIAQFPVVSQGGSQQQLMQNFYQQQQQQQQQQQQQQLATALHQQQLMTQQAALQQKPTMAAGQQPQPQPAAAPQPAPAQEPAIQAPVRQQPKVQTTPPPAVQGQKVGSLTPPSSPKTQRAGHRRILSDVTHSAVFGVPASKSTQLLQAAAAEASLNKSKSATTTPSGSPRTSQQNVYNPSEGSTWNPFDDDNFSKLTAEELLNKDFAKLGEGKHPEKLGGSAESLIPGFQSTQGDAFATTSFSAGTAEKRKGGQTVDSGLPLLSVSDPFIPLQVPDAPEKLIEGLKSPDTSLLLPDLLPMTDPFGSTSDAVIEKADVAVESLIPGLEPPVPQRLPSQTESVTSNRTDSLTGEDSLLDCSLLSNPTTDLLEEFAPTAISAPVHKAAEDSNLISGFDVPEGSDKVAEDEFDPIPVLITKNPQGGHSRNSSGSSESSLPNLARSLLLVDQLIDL
# UniProt Q9UBF8, sequence (whole entry, looked up): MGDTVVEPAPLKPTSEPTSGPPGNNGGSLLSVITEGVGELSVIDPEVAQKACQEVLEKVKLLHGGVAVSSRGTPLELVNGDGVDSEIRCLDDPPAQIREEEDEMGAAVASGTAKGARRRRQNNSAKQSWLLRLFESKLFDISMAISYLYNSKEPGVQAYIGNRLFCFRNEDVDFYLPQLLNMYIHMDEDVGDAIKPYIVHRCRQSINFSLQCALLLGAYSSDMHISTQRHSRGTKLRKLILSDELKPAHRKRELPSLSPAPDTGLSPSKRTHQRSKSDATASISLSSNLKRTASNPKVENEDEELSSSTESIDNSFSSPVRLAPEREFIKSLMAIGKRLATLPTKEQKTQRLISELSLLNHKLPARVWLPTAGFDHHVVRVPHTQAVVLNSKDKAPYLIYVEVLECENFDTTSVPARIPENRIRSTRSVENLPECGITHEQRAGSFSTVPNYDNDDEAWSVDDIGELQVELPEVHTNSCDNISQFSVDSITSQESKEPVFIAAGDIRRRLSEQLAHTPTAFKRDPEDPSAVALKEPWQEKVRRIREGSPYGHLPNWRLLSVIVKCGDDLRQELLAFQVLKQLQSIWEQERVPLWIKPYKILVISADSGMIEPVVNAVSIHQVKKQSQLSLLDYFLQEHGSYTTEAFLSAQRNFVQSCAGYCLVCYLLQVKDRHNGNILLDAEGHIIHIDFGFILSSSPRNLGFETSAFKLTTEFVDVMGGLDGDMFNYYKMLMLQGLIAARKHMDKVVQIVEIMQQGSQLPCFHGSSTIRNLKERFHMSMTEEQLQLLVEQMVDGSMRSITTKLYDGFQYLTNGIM
# UniProt P10632, sequence (whole entry, looked up): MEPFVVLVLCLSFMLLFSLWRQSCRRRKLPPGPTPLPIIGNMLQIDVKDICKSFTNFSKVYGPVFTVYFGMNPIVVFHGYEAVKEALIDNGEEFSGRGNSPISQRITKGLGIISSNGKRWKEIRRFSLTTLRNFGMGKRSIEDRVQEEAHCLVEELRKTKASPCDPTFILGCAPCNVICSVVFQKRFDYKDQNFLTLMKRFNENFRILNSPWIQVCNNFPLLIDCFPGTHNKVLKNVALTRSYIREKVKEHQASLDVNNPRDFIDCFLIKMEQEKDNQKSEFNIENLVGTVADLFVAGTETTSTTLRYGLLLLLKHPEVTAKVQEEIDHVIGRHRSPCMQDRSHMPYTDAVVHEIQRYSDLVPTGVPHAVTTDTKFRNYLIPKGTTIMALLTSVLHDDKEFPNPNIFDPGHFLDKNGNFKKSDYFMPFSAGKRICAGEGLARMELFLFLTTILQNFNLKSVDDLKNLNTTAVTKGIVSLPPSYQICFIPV
# UniProt P28074, sequence (whole entry, looked up): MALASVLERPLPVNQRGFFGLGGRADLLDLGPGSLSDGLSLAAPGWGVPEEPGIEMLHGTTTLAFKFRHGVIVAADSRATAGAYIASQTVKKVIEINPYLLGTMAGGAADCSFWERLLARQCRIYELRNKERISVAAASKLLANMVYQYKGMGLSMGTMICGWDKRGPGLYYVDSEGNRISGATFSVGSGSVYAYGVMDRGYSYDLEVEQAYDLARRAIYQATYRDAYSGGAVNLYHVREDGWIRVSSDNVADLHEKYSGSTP
# UniProt Q86TI2, sequence (whole entry, looked up): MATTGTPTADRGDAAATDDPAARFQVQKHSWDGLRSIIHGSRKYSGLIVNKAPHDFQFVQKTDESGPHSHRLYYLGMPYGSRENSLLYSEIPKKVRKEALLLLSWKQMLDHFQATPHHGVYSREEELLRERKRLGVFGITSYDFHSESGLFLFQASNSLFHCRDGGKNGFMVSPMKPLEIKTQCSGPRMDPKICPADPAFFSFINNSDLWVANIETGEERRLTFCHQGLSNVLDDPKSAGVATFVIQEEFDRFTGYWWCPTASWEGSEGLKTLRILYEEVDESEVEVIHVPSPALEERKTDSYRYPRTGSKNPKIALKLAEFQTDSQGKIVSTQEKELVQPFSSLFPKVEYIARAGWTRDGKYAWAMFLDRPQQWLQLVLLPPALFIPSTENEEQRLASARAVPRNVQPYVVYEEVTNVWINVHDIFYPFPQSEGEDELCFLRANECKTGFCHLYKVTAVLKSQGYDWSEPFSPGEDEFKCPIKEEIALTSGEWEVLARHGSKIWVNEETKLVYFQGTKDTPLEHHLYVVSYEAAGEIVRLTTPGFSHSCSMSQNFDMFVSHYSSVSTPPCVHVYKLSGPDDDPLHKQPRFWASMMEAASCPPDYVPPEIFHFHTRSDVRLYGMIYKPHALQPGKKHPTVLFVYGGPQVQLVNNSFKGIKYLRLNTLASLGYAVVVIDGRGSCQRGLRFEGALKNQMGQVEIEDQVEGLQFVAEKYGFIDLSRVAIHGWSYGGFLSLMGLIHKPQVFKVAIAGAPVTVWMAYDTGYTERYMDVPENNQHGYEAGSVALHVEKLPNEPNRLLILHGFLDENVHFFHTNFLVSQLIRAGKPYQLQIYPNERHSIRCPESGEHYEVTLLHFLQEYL
# UniProt P07265, sequence (whole entry, looked up): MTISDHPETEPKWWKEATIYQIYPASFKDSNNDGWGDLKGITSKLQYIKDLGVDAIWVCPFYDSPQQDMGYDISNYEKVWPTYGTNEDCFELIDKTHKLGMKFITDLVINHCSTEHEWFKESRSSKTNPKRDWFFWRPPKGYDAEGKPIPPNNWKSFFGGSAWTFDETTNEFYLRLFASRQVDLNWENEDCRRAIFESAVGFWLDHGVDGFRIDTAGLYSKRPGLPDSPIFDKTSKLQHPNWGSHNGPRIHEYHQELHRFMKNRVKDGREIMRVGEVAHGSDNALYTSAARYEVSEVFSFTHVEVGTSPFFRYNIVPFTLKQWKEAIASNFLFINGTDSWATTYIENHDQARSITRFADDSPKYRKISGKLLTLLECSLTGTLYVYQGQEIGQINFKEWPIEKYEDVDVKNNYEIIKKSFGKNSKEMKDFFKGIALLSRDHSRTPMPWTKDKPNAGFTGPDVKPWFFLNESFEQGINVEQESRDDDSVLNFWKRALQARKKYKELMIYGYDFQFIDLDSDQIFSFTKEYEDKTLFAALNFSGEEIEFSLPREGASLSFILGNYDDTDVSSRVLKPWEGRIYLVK
# UniProt C7C422, sequence (whole entry, looked up): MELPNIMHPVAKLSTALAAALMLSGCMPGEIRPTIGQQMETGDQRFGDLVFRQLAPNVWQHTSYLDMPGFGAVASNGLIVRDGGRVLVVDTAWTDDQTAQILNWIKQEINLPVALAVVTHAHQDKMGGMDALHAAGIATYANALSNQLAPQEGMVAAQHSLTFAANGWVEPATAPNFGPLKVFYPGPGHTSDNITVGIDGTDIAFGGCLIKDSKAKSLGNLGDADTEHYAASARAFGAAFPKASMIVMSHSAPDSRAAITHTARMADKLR
# UniProt Q9BV86, sequence (whole entry, looked up): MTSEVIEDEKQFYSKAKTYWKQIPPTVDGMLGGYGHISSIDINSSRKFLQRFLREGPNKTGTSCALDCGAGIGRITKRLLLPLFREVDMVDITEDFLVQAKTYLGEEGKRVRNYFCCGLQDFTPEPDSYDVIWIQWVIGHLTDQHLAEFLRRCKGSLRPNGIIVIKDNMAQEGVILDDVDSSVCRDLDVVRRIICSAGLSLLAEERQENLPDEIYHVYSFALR
SMILES,target,assay,system,setting,IC50 [µM]
C=CCc1ccc(OCc2nnc(SCC(=O)Nc3ccc(Br)cc3)o2)c(OC)c1,"TYMS (Homo sapiens, UniProt P04818)","enzyme activity, inhibitor",,,2.93
COC(=O)C1CN1S(=O)(=O)c1ccc2c(C=O)c(N(C)C)ccc2c1 (centres unmarked),"PDIA3 (Homo sapiens, UniProt P30101)","enzyme activity, inhibitor, absorbance",,pH 7.6,4.1
N[C@@H](Cc1c[nH]c2ccc(OCc3ccccc3-c3ccoc3)cc12)C(=O)O,"SLC7A5 (Homo sapiens, UniProt Q01650)","transporter uptake, inhibitor, radiometric",,,16
CNC(=O)CNc1cnc2ccc(-c3ccc(OC)c(OC)c3)cc2n1,"PI4KB (Homo sapiens, UniProt Q9UBF8)","enzyme activity, inhibitor",,,~0.09
CC(C)=CCc1c(O)c(CC=C(C)C)c2occ(-c3ccc(O)c(O)c3)c(=O)c2c1O,"MAL62 (Saccharomyces cerevisiae, UniProt P07265)","enzyme activity, inhibitor",,added: PNPG 500 µM,29 ± 4.4
Cc1cc(CN2CCN(c3c(Br)cnc4nc(-c5ccc(N6CCN(C)CC6)cc5)[nH]c34)CC2)no1,"FLT3 (Homo sapiens, UniProt P36888, D835Y)","enzyme activity, inhibitor",,,0.0033
CCC1(CC)C(=O)N(c2cccc(CN3CCN(c4cc(C)nc5ccc(Br)cc45)CC3)c2)C1=O,"DPP9 (Homo sapiens, UniProt Q86TI2)","cell-free assay, inhibitor",,,1.03
N=C(N)NCCCC(N)C(=O)NCC(=O)NC(CCCCNC(=N)NCCCSCC1OC(n2cnc3c(N)ncnc32)C(O)C1O)C(N)=O (centres unmarked),"N-terminal Xaa-Pro-Lys N-methyltransferase 1 (Homo sapiens, UniProt Q9BV86)","enzyme activity, inhibitor, fluorescence",,,> 100
Cc1c(NC(=O)c2ccc3c(c2)CC[C@@H]2C[C@@](O)(C(F)(F)F)CC[C@@]32Cc2ccccc2)ccc[n+]1[O-],"Cytochrome P450 2C8 (CYP2C8, Homo sapiens, UniProt P10632)","enzyme activity, inhibitor","human, liver microsomes",,12
CN(C)c1ccc2c(c1)C(=O)N(C(C(=O)O)C(C)(C)S)C2=O (centres unmarked),"blaNDM-1 (Klebsiella pneumoniae, UniProt C7C422)","enzyme activity, inhibitor",,pH 7,> 150
CC(C)C[C@H](NC(=O)[C@H](CC(N)=O)NC(=O)[C@H](CC(C)C)NC(=O)[C@@H](NC(=O)[C@@H](NC(=O)[C@@H]1CCCN1C(=O)[C@H](CCCNC(=N)N)NC(=O)[C@H](CCCCN)NC(=O)[C@@H]1CCCN1)[C@@H](C)O)[C@@H](C)O)C(=O)N[C@@H](Cc1ccccc1)C(=O)NCCCCCC(=O)N[C@@H](CCCNC(=N)N)C(=O)N[C@@H](CCCNC(=N)N)C(=O)N[C@@H](CCCNC(=N)N)C(=O)N[C@@H](CCC(N)=O)C(=O)N[C@@H](CCCNC(=N)N)C(=O)N[C@@H](CCCNC(=N)N)C(=O)N[C@@H](CCCCN)C(=O)N[C@@H](CCCCN)C(=O)N[C@@H](CCCNC(=N)N)C(=O)NCC(N)=O,"MAPK9 (Homo sapiens, UniProt P45984)","kinase activity, inhibitor, radiometric",,"pH 7.5, 30 °C, added: GST-c-Jun substrate",0.092 ± 0.003
Cc1nnc(-c2cccc(Nc3ncnn4ccc(CN5CCC(N)CC5)c34)c2)s1,"AAK1 (Homo sapiens, UniProt Q2M2I8)","enzyme activity, inhibitor",,,0.21
C=C(NC(=O)C(=C)NC(=O)c1csc(C2=NC3c4csc(n4)C4NC(=O)c5csc(n5)C(C(C)(O)C(C)O)NC(=O)C5CSC(=N5)C(=CC)NC(=O)C(C(C)O)NC(=O)c5csc(n5)C3(CC2)NC(=O)C(Cc2ccc(O)cc2)NC(=O)C(=C)NC(=O)C(C)NC(=O)C(C(C)CC)NC2C=Cc3c(C(C)O)cc(nc3C2O)C(=O)OC4C)n1)C(N)=O (centres unmarked),"PSMB5 (Homo sapiens, UniProt P28074)","chymotrypsin-like activity, inhibitor",purified 20S proteasome,"15 min preincubation, 37 °C, added: Suc-Leu-Leu-Val-Tyr-AMC substrate",0.63 ± 0.09
O=C(COCCc1ccccc1)N[C@@H](Cc1cn(CCNC(=O)c2ccc(S[C@@H]3O[C@H](CO)[C@H](O)[C@H](O)[C@H]3O)cc2)nn1)C(=O)NCCO,"lecA (Pseudomonas aeruginosa, UniProt Q05097)","ligand displacement, FP",,,43.3

# Excerpt of the above:
SMILES,target,assay,system,setting,IC50 [µM]
N=C(N)NCCCC(N)C(=O)NCC(=O)NC(CCCCNC(=N)NCCCSCC1OC(n2cnc3c(N)ncnc32)C(O)C1O)C(N)=O (centres unmarked),"N-terminal Xaa-Pro-Lys N-methyltransferase 1 (Homo sapiens, UniProt Q9BV86)","enzyme activity, inhibitor, fluorescence",,,> 100
Cc1c(NC(=O)c2ccc3c(c2)CC[C@@H]2C[C@@](O)(C(F)(F)F)CC[C@@]32Cc2ccccc2)ccc[n+]1[O-],"Cytochrome P450 2C8 (CYP2C8, Homo sapiens, UniProt P10632)","enzyme activity, inhibitor","human, liver microsomes",,12
